Assay results of several laboratories.
A part holds a random share of what one study measured. Substitutions count along the parent as printed.

Sample 1
Target: Histone acetyltransferase KAT6A, winged helix 1, GST fusion (KAT6A, Homo sapiens, UniProt Q92794, residues 1-85)
Method: protein binding microarray
Molecule type: double-stranded DNA, one strand shown
Matrix: in vitro
Tested at: not given
Notes: 8-mer, flanks averaged, mean of 2 arrays, mostly near background
Baseline: not given
Reading: higher = stronger binding
Residues (chain): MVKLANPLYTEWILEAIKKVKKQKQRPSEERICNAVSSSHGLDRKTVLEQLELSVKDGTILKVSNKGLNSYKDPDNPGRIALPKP
With `ACCACCTC` the E-score was -0.208.
With `CAGGGAGC` the E-score was -0.0739.
`CTCCTGGC` gave an E-score of -0.0373.
The E-score of `GCCTCTGA` is reported as -0.215.
The E-score of `AGTACCGA` is reported as 0.0599.
The E-score of `ATTGAACC` is reported as -0.186.
The E-score of `CAATTTAC` is reported as -0.147.
The E-score of `ACGAGCCA` is reported as -0.186.
`CGCTGGCA` has an E-score of 0.0705.
The E-score of `AAACATGT` is reported as 0.0276.
`CTAATGAG` has an E-score of -0.0468.
`AGAGGTAA` gave an E-score of -0.193.
For `GTTCCCCA`, the E-score was -0.0916.
With `CCACATGG` the E-score was -0.0747.
`AGGCGACC` gave an E-score of -0.0314.
With `AATCTCCC` the E-score was -0.0585.
The E-score of `CAACTCAC` is reported as -0.291.
The E-score of `CTTGCGTC` is reported as 0.135.
`GGAATTTA` gave an E-score of -0.0212.
`GCCTGTAC` has an E-score of 0.0521.

Sample 2
Target: Interferon regulatory factor 3, full length, phosphomimetic (IRF3, Homo sapiens, UniProt Q14653, residues 1-427, S386D/S396D/S398D/S402D/T404D/S405D)
UniProt Q14653, sequence (whole entry, unmodified, looked up): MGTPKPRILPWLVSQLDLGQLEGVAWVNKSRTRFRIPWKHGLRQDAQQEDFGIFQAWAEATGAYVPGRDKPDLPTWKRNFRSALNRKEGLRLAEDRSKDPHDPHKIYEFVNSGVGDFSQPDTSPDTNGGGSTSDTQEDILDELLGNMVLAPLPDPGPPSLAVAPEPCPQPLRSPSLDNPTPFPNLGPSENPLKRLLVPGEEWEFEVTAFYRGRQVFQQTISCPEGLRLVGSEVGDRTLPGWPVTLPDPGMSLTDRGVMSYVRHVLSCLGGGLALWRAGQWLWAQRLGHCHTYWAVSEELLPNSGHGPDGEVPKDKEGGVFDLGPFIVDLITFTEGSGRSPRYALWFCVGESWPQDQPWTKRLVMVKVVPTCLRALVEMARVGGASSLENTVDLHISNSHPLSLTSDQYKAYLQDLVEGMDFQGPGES
Method: protein-binding microarray
Molecule type: double-stranded DNA, one strand shown
Matrix: in vitro
Tested at: 2540 nM top
Notes: 60-bp whole probe
Together with: salmon DNA 0.4 mg/ml
Baseline: random background probes
Reading: higher = stronger binding
Constant ends, left off below: GCCTAGCAC … GTCTTGATTCGCTTGACGCTGCTG
For `GACGGTAGCCTTATCCTGACGTGCTAG`, “fitted relative affinity” read 0.837 z-score.
`GACGGTTCCCTTTTCATGACGTGCTAG` — result for “fitted relative affinity”: 6.05 z-score.
For `TGCATTCCCTTTCTCAACCTGTGCTAG`, “fitted relative affinity” read 4.94 z-score.
Under “fitted relative affinity”, `GTGTTTTTCTCCTATTTAAGAGTGCTA` is recorded as 2.47 z-score.
Under “fitted relative affinity”, `TTAGGTTTCCTACTGTTTTAGTGCTAG` is recorded as 4.4 z-score.
`TCAACTCCAGTTCTGGGACTGTGCTAG`: “fitted relative affinity” 0.19 z-score.
For `TCACCTAGCCATTATGAGACTGTGCTA`, “fitted relative affinity” read -0.00244 z-score.
Under “fitted relative affinity”, `GACCATTCCAGTTTCGAGACGTGCTAG` is recorded as 3.15 z-score.
Under “fitted relative affinity”, `TTAGGTTTTGGACTGGGTTAGTGCTAG` is recorded as 0.578 z-score.
`GACGGAGTGGGGTATCGGGACGTGCTA`: “fitted relative affinity” -0.338 z-score.
`GACGGTTTCGGATCCGGGACGTGCTAG` — result for “fitted relative affinity”: 7.49 z-score.

Sample 3
Target: Prothrombin, mature alpha-thrombin (F2, Homo sapiens, UniProt P00734)
Method: aptamer microarray, sandwich
Molecule type: DNA with 2'F-ANA
Matrix: in vitro
Tested at: 200 nM
Notes: whole 15-mer aptamer, many near background
Together with: Cy3 exosite-II aptamer, 400 nM
Reading: higher = stronger binding
Strand: GGTTGGTGTGGTTGG
`2'F-ANA at 2 3 4 5 6 8 9 11 12 13 15`: “mean fluorescence intensity” 105 a.u.
`2'F-ANA at 3 8 10 12 13 14 15`: “mean fluorescence intensity” 410 a.u.
For `2'F-ANA at 1 3 4 5 6 7 8 12 13 14`, “mean fluorescence intensity” read 48.6 a.u.
For `2'F-ANA at 1 3 4 5 6 7 8 9 11`, “mean fluorescence intensity” read 57 a.u.
Under “mean fluorescence intensity”, `2'F-ANA at 1 2 4 7 10 12` is recorded as 57.1 a.u.
For `2'F-ANA at 3 7 10 11 13 14`, “mean fluorescence intensity” read 375 a.u.
`2'F-ANA at 3 4 5 6 9 11 12 13 15` — result for “mean fluorescence intensity”: 92.8 a.u.
For `2'F-ANA at 2 3 4 5 7 8 13 14`, “mean fluorescence intensity” read 94.5 a.u.
`2'F-ANA at 2 4 6 7 8 9 10 12 13` — result for “mean fluorescence intensity”: 96.8 a.u.
`2'F-ANA at 1 3 5 6 7 11 13 14 15` — result for “mean fluorescence intensity”: 100 a.u.
For `2'F-ANA at 1 6 7 8 10 11 12`, “mean fluorescence intensity” read 77.9 a.u.
Under “mean fluorescence intensity”, `2'F-ANA at 1 3 6 7 9 12 13 14 15` is recorded as 96.6 a.u.
`2'F-ANA at 1 2 5 7 9 10 12`: “mean fluorescence intensity” 49.8 a.u.
For `2'F-ANA at 1 3 4 6 7 12 15`, “mean fluorescence intensity” read 413 a.u.

Sample 4
Target: Ras GTPase-activating protein-binding protein 1, full length (G3BP1, Homo sapiens, UniProt Q13283)
UniProt Q13283, sequence (whole entry, looked up): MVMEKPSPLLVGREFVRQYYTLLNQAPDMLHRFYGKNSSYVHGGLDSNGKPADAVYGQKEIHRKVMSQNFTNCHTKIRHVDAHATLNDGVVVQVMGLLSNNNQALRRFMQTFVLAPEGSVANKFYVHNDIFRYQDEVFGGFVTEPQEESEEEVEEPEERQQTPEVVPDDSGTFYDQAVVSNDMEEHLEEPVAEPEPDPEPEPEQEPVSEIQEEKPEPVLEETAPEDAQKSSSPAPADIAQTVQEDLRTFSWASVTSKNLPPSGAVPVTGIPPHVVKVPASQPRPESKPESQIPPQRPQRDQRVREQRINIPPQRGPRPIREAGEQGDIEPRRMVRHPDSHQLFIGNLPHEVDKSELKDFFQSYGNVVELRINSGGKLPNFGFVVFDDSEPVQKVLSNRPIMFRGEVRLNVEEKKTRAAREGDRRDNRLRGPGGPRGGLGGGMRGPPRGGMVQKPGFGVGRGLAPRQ
Method: RNA Bind-n-Seq
Molecule type: RNA
Matrix: in vitro
Tested at: 200 nM
Notes: whole 134-nt RNA, ends assumed
Together with: 150 mM LiCl
Baseline: input library
Reading: higher = stronger binding
All molecules: 7-deaza-guanosine replaces G
Constant ends, left off below: GGGAGUUCUACAGUCCGACGAUC … UGGAAUUCUCGGGUGUCAAGG
The log2 enrichment of `UCCCGACAUCUGUGGCCCUGGCACCAAGAAGGUUCAUGUCAUCUUCAACUACAAGGGCAAGAACGUGCUGAUCAACAAGGACAUCCGUUG` is reported as -1.11.
The log2 enrichment of `AAGUCCUGUGCUACACAUCGUAUGUACCGAAUCGGGGAAAGGGGUGGGGUUUGGGGAAAGUAUUAUGUUACGCCGUUCGGAUCUGCACUU` is reported as -0.522.
`UUCCAGGCUCAAGCACGGACAUCAGUGAGGACUGGGAGAAAGACUUUGACUUGGACAUGACUGAAGAGGAGGUGCAGAUGGCACUUUCCA` gave a log2 enrichment of -2.47.
With `UAACUUUAGAGGAGGAUCUGAUGGAUAUGGCAGUGGACGUGGAUUUGGGGAUGGCUAUAAUGGGUAUGGAGGAGGACCUGGAGGAGGCAA` the log2 enrichment was 0.074.
`UCCUGUGCUACACAUCGUAUGUACCGAAUCGGGUUUUUGGGAAAAAGGGAAAAAAAGGGAAAGUAUUAUGUUACGCCGUUCGGAUCUGCA` has a log2 enrichment of -0.526.
`UUCAACAACUAGUACUGCUUCAAAUUAUCCAGAUGUGUUAACAAGGCCUUCUCUUCAUCGGAGCCAUCUGAAUUUUUCCAUGUUGGAAUC` gave a log2 enrichment of 1.2.

Sample 5
Target: CCNB2, cyclin fold, Cln2 fusion (human)
Method: yeast growth competition, sequencing
Matrix: yeast
Notes: strong parent motif
Baseline: not given
Reading: higher = stronger binding
Starting sequence: MICAL3 docking peptide (human); LQLRRQLSFSEDS
`LHLRRQLSFSEDS [Q2H]` — result for “normalised enrichment score”: 3.09.
`LQLNRQLSFSEDS [R4N]` — result for “normalised enrichment score”: 2.06.
`LQNRRQLSFSEDS [L3N]`: “normalised enrichment score” 0.468.
`LQLRRQLSFWEDS [S10W]` — result for “normalised enrichment score”: 0.623.
`LQLRLQLSFSEDS [R5L]` — result for “normalised enrichment score”: 0.393.
`LDLRRQLSFSEDS [Q2D]`: “normalised enrichment score” 2.61.
`LQLRRQTSFSEDS [L7T]` — result for “normalised enrichment score”: 0.191.
`LQLRRQLSFSADS [E11A]`: “normalised enrichment score” 2.07.
Under “normalised enrichment score”, `LQLRRQLCFSEDS [S8C]` is recorded as 1.31.
Under “normalised enrichment score”, `LQLRRQLSFSEQS [D12Q]` is recorded as 2.59.
`LQLRRQLSLSEDS [F9L]` — result for “normalised enrichment score”: 0.000377.
Under “normalised enrichment score”, `LQLRRQLSFSHDS [E11H]` is recorded as 1.27.
For `LQLRRQLSFSEWS [D12W]`, “normalised enrichment score” read 1.96.

Repeated from above (sample 5):
`LQLRLQLSFSEDS [R5L]` — result for “normalised enrichment score”: 0.393.
`LDLRRQLSFSEDS [Q2D]`: “normalised enrichment score” 2.61.
`LQLRRQTSFSEDS [L7T]` — result for “normalised enrichment score”: 0.191.
`LQLRRQLSFSADS [E11A]`: “normalised enrichment score” 2.07.
Under “normalised enrichment score”, `LQLRRQLCFSEDS [S8C]` is recorded as 1.31.
Under “normalised enrichment score”, `LQLRRQLSFSEQS [D12Q]` is recorded as 2.59.
`LQLRRQLSLSEDS [F9L]` — result for “normalised enrichment score”: 0.000377.
Under “normalised enrichment score”, `LQLRRQLSFSHDS [E11H]` is recorded as 1.27.
